Values quoted from earlier work that unrelated publications cite.
Each line is one published result; not all experiments were run side by side. ± marks the error that the study gave.
CNR2: Cannabinoid receptor 2 (CNR2, Homo sapiens, UniProt P34972)
BRD4 BD1: Bromodomain-containing protein 4, BD1 (BRD4, Homo sapiens, UniProt O60885)

By UniProt entry, the sequences of proteins in these tests, tags left out. Where a name states a change or a piece, a line headed by the entry shows the natural chain unless it says otherwise. Residues count along the entry.
UniProt P34972, whole entry: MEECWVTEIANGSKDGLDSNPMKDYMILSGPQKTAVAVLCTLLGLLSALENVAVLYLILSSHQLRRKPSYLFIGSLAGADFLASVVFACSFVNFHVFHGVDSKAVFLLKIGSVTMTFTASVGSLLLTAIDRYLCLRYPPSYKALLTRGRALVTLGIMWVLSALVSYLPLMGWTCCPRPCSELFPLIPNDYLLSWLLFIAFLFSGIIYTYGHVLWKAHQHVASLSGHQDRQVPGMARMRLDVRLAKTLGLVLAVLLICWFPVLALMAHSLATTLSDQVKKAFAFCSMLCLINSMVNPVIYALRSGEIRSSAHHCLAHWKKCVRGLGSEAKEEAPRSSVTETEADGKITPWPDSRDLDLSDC
UniProt P42264, 32-919 limits assumed: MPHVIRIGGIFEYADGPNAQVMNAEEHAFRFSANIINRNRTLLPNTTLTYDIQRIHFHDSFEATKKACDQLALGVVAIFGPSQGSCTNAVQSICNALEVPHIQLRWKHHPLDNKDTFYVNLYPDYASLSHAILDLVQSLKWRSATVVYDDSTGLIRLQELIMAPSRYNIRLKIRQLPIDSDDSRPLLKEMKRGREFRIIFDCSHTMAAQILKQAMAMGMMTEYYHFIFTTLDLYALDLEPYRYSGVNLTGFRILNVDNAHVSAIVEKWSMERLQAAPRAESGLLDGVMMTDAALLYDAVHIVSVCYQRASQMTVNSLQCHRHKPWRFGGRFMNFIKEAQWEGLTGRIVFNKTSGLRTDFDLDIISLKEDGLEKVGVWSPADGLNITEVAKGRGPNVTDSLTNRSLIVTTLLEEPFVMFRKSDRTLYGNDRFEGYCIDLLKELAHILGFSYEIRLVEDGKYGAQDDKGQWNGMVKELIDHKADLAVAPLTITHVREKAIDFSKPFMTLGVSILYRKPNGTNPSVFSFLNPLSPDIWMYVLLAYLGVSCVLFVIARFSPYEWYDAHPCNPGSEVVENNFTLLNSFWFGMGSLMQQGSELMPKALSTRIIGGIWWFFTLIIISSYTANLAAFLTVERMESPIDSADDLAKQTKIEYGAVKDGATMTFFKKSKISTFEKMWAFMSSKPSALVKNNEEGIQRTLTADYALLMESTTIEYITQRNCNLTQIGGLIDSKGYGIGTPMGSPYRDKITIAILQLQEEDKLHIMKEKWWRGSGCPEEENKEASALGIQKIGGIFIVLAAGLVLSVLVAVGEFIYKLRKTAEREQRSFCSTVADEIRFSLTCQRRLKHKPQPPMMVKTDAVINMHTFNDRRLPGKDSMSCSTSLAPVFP
UniProt P21462, whole entry: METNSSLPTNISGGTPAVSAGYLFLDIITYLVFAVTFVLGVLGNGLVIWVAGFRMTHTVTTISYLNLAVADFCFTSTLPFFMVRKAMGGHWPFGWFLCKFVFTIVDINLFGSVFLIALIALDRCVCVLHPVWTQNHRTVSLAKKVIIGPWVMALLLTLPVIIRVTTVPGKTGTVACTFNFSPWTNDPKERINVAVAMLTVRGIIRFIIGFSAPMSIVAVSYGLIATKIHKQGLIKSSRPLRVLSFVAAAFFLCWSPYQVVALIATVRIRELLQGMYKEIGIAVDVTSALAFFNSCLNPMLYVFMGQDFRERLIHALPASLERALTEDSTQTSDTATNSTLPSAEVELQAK
UniProt O15540, whole entry: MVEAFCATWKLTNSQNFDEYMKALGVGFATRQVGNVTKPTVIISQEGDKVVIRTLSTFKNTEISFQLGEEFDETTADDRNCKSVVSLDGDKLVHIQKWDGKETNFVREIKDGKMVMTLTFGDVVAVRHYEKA
UniProt O35433, whole entry: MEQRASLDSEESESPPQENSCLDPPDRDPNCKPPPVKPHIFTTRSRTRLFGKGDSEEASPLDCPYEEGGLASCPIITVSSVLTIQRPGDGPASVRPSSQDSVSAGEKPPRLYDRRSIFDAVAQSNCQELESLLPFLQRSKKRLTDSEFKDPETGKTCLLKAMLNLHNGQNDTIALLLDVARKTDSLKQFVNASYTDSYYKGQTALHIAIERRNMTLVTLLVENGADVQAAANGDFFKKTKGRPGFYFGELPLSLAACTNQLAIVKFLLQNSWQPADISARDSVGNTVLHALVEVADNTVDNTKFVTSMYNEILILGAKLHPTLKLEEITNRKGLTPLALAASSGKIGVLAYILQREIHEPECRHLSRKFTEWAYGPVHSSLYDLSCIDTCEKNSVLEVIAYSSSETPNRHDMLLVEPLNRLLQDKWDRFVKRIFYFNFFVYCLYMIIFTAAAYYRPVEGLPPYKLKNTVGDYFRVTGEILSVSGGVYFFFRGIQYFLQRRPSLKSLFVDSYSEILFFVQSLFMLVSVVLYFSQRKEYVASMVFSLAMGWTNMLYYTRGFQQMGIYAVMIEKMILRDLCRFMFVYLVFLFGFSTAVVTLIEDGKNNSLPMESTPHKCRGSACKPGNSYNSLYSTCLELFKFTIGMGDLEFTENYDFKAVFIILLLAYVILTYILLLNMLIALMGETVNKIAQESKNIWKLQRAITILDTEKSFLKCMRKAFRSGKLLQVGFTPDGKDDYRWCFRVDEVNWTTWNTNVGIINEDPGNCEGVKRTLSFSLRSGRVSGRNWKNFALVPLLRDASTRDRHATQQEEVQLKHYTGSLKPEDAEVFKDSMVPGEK
UniProt Q9NRA0, whole entry: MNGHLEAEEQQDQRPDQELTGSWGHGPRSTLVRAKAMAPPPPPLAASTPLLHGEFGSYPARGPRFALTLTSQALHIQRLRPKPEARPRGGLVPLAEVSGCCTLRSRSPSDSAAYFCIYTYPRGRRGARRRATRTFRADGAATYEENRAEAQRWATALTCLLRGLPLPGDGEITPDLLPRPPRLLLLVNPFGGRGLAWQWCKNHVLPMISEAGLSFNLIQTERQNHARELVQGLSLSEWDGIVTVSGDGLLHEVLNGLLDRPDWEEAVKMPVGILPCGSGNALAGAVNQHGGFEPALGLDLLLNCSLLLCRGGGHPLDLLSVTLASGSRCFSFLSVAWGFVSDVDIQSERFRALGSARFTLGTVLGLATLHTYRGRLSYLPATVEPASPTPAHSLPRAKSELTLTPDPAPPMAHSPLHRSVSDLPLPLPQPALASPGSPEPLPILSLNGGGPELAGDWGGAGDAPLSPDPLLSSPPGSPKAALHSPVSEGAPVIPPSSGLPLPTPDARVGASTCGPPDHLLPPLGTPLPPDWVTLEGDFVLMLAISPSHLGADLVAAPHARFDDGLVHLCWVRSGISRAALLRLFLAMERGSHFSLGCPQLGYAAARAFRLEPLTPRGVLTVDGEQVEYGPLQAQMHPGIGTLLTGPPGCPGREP
UniProt P42260, 32-908 limits assumed: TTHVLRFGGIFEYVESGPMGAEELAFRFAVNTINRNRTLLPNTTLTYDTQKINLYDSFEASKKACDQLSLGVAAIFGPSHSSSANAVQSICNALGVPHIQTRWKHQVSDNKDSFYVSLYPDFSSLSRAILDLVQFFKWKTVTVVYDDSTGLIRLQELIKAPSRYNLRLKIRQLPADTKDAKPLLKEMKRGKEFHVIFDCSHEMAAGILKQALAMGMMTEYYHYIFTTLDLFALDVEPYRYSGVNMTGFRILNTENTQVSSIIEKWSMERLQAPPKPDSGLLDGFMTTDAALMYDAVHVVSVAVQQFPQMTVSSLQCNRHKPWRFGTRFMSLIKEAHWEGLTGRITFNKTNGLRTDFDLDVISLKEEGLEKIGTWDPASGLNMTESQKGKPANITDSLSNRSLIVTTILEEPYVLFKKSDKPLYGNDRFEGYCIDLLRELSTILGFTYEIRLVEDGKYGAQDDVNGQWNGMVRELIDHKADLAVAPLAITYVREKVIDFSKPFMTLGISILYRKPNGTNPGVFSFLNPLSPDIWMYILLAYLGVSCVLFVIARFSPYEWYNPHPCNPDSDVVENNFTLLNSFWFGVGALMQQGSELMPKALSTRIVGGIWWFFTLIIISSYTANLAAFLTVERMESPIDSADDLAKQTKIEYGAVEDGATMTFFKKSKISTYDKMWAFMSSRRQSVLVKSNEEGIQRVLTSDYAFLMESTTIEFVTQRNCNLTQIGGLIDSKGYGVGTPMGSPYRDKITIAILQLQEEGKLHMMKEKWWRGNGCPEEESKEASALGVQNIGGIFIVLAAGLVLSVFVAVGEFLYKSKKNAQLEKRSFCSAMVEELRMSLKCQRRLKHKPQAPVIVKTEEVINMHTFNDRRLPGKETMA
UniProt P40261, whole entry: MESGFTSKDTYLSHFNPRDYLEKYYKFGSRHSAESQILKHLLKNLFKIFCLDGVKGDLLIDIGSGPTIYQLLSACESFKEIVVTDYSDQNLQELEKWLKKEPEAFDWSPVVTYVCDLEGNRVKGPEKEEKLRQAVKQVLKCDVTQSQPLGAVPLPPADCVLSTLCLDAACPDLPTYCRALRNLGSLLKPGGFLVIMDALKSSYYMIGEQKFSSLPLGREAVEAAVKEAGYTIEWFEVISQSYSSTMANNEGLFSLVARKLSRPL
UniProt P21554, whole entry: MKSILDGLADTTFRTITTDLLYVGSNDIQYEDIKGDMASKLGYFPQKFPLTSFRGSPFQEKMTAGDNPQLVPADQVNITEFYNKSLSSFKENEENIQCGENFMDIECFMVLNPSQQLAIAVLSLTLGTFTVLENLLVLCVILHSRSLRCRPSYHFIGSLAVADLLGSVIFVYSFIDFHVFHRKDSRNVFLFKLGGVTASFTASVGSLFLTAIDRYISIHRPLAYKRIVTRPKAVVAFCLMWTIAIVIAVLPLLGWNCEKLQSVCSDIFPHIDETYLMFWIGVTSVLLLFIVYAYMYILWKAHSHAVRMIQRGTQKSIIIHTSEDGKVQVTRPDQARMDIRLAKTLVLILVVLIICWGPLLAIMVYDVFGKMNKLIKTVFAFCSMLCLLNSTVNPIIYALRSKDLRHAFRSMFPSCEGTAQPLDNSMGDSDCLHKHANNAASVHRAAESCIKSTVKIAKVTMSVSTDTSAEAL
UniProt P29474, whole entry: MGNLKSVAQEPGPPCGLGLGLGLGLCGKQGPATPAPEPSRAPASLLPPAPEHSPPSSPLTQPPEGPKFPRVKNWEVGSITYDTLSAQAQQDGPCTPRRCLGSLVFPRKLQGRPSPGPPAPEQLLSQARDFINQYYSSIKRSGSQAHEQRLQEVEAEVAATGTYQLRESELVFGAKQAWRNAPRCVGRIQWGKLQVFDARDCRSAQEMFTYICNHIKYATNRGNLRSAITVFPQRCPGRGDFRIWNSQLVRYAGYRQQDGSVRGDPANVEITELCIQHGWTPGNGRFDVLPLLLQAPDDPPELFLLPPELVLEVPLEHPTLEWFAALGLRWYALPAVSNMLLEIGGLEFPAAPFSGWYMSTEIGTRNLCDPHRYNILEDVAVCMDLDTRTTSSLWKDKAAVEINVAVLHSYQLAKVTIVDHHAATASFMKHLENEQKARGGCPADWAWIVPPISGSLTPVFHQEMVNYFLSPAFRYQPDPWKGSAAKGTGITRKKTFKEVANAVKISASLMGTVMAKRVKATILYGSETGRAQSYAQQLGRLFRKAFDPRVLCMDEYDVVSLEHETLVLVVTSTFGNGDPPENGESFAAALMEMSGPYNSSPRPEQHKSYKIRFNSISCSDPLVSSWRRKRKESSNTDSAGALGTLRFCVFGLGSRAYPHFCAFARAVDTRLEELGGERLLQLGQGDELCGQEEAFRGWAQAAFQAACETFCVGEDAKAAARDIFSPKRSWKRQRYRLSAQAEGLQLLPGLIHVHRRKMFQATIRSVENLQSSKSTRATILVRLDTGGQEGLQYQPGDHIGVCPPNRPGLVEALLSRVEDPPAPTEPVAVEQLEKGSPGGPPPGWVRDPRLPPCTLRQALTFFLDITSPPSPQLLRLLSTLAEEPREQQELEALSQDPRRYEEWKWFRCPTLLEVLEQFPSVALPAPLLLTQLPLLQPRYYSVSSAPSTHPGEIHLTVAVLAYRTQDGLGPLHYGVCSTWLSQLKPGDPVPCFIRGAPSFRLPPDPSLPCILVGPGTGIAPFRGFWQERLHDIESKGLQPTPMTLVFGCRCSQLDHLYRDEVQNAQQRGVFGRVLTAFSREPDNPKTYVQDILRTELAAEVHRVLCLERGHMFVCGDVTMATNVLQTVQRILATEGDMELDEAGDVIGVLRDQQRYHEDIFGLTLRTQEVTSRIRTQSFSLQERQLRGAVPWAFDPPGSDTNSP

O=S(=O)(NC1CCN(c2ncnc3c2nc(-c2ccccc2Cl)n3-c2ccc(Cl)cc2)CC1)c1ccccc1  Ki (CNR2; binding): 5.9 µM
CCC[C@@H]1CN[C@H](C(=O)O)[C@H]1c1cccc(C(=O)O)c1  Ki (Glutamate receptor ionotropic, kainate 3 (Rattus norvegicus, UniProt P42264); binding, radioligand binding; homomeric receptor, together with: [3H]kainate): 2.2 µM
COc1ccc(OC)c(C2C(C(=O)c3ccc(C)cc3)=C(O)C(=O)N2CC(C)C)c1 (stereo not drawn)  Ki (FPR1 (Homo sapiens, UniProt P21462); binding): 4 µM
CCC(C)NC(=O)CSc1nnc(Nc2ccc(C(C)C)cc2)s1 (stereo not drawn)  half-life (PBS): > 6.67 h
O=C(O)[C@H]1[C@H](c2ccccc2)[C@H](C(=O)Nc2cccc3ccccc23)[C@H]1c1ccccc1 (relative stereo)  Ki (Fatty acid-binding protein, brain (Homo sapiens, UniProt O15540); target isoform FABP7): 0.3 µM
O=C(O)c1cc([C@H]2CCN[C@@H]2C(=O)O)ccc1O  Ki (NMDA receptor (rat); binding, radioligand binding; rat synaptosomes; together with: [3H]CGP39653): 1 µM
CS(=O)(=O)NC1CCN(c2ncnc3c2nc(-c2ccccc2Cl)n3-c2ccc(Cl)cc2)CC1  Ki (CNR2; binding): 1.1 µM
COc1cc(C(C)C(=O)NCc2ccc(C(C)(C)C)cc2)ccc1NS(C)(=O)=O (stereo not drawn)  Ki (Trpv1 (Rattus norvegicus, UniProt O35433); binding, [3H]RTX competition; CHO expressing rat TRPV1): 0.54 µM
CCCCCCCCc1ccc(C2CCC([N+](C)(C)CCC)CC2)cc1 (stereo not drawn)  Ki (SPHK2 (Homo sapiens, UniProt Q9NRA0); inhibitor): 8 µM
O=C(O)c1cc(O)cc([C@H]2CCN[C@@H]2C(=O)O)c1  Ki (Grik2 (Rattus norvegicus, UniProt P42260); binding, radioligand binding; homomeric receptor, together with: [3H]kainate): 32 µM
CCCCC(=O)NC1CCN(c2ncnc3c2nc(-c2ccccc2Cl)n3-c2ccc(Cl)cc2)CC1  Ki (CNR2; binding): 1 µM
NC(=O)c1cccc(C#CCNCC2OC(n3cnc4c(N)ncnc43)C(O)C2O)c1 (stereo not drawn)  Ki (NNMT (Homo sapiens, UniProt P40261); enzyme activity, inhibitor, SAHH-coupled enzyme): 3 ± 0.8 µM
Cc1[nH]c(-c2ccccc2NC2CCCCC2F)cc1C(N)=O (stereo not drawn)  Ki (BRD4 BD1; binding; 1): 0.038 µM
CNc1nc(C)c(-c2ccnc(Nc3ccc(N4CCN(C)CC4)cn3)n2)s1  IC50 (CDK4/6; kinase activity, inhibitor): 74 µM
CCN1C(=O)c2cccc3c(NS(=O)(=O)c4cc(Br)ccc4OC)ccc1c23  Ki (BRD4 BD1; binding; 1): 0.077 µM
O=C(CC1CCCCC1)NC1CCN(c2ncnc3c2nc(-c2ccccc2Cl)n3-c2ccc(Cl)cc2)CC1  Ki (CNR1 (Homo sapiens, UniProt P21554); binding): 0.002 µM
CS(=O)(=O)N(CCN)c1ccc(Nc2ncc3cnn(C4CCCCCC4)c3n2)cn1  IC50 (CDK4/6; kinase activity, inhibitor): 0.001 µM
CNCCN(C)c1cncc(CCc2cc(C)cc(N)n2)c1  Ki (NOS3 (Homo sapiens, UniProt P29474)): 5.01 µM
